Assay results gathered from unrelated publications.
Every numbered part comes from another study and shows a few of its results, in no order. Positions count from the first letter of the parent shown.

Set 1 — read-out: binding; technique: phage display NGS; form: peptide; notes: panning round 2; relative to: input library; endpoint: minimum log2 enrichment ratio
Target: UDP-N-acetylglucosamine--peptide N-acetylglucosaminyltransferase 110 kDa subunit (OGT, Homo sapiens, UniProt O15294)
Target sequence (O15294 1-1046): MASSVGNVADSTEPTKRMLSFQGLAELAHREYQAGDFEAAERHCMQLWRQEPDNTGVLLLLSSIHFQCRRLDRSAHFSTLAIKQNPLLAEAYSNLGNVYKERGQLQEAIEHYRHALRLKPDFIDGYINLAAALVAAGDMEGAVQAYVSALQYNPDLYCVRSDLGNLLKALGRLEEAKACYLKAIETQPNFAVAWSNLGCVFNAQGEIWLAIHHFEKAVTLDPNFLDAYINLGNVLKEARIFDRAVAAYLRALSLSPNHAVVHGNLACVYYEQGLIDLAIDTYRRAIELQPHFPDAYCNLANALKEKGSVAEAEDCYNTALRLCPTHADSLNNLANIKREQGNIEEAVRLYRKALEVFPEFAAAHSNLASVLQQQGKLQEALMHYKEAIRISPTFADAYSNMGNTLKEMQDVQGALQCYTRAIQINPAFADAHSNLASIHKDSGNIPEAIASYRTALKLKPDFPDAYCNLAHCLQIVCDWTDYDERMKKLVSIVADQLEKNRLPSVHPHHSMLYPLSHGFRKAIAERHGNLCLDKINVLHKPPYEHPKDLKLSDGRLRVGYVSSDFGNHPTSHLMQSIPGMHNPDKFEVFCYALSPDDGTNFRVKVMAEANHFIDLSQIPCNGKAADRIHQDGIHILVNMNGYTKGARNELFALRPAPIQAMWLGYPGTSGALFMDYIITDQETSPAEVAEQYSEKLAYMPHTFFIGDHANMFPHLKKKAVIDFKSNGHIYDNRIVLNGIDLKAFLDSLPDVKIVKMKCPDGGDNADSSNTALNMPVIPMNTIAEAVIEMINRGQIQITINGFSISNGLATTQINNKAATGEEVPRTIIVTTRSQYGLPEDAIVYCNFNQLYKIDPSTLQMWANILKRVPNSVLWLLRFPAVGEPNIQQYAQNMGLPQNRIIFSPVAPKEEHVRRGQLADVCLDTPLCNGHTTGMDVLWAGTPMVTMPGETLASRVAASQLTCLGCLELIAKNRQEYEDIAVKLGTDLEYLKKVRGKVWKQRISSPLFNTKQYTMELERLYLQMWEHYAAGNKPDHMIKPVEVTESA
WIRSPHQHGQIHRS: 2.79
IEMHHQHHAHLLNR: 2.82
ESHQYSFKPMYQIVI: 4.53
QEHQYYRPKYLIEIY: 2.29
HYERHQSHPWEEFMH: 2.64
TWRHVVEANHVHMPK: 3.63
SSNEPHYPPKYQMVI: 3.64
HPQMHPFRGQQHHVY: 2.34

Set 2 — target: CCNB2, cyclin fold, Cln2 fusion (human); technique: yeast growth competition, sequencing; medium: yeast; notes: weak parent motif; relative to: not given; reading: higher = stronger binding; endpoint: normalised enrichment score
Starting sequence: viral docking peptide; KGVKRKLFAEDSS; partner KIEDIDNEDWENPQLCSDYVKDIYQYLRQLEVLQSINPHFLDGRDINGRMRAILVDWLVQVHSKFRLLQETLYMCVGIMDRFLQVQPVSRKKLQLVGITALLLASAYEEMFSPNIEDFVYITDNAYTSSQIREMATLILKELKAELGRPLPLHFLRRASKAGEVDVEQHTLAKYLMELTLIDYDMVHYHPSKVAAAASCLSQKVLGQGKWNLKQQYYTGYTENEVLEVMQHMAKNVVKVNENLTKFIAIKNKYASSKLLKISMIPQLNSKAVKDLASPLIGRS
D11I: 0.772
A9Y: 1.22
K4V: 0.347
D11A: 0.96
F8H: 0.267
D11C: 0.682
S12V: 0.961
K6R: 1.11

Set 3 — target: inorganic phosphate, free oxyanion; technique: microfluidic competitive inhibition; medium: in vitro, cell-free expressed; concentration: not given; reading: lower = stronger binding; endpoint: phosphate dissociation constant
Notes: derived from inhibition constants, unchanged parent 615000 nM
Starting sequence: PafA, mature enzyme, eGFP fusion (Elizabethkingia meningoseptica, UniProt Q9KJX5); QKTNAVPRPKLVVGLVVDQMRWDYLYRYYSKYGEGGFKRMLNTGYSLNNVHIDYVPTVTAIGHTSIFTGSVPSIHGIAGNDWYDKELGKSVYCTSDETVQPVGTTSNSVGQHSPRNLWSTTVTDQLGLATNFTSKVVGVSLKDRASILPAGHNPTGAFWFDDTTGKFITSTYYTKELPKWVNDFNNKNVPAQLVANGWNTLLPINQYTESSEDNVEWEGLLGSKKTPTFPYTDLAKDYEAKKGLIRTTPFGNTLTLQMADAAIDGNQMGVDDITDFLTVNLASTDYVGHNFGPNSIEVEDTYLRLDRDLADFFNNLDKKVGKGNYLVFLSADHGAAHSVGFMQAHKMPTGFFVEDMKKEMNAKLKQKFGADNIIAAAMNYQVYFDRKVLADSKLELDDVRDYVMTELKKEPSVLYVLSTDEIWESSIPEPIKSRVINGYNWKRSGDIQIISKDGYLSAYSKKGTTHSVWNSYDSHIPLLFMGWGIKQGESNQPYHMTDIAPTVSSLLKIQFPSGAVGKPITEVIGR
R443G: 669 µM
D397V: 709 µM
A458V: 674 µM
V388G: 660 µM
Y402G: 594 µM
I436G: 349 µM
L41V: 578 µM
M404G: 448 µM

Further values, each from its own experiment
CCN(CC)C(=S)SSC(=S)N(CC)CC — effect (dsDNA unwinding, PicoGreen fluorescence; annealed dsDNA substrate; 20 µM): 12.2%
